Measurements of several laboratories.
Compare with care: the assays were run in different laboratories. Numbers after ± are the reported error.

| Compound | test | system | setting | how to read | endpoint | value |
| --- | --- | --- | --- | --- | --- | --- |
| CC(=O)[CH](C(C)=O)[Pt-2]1([S+](C)C)[O]C(C)=CC(C)=[O+]1 (stereo not drawn) |  | MCF7, BALB/c nude mice, xenograft | intravenous, 5 mg/kg, 30 days, single dose |  | tumour volume | 168 ± 40.2 mm³ |
| O=C(Cc1ccc(F)cc1)NCCOc1ccc(-c2ccc(F)cc2)nn1 |  | mice MC38 colon tumour | oral, 20 mg/kg daily, 21 days |  | tumour growth inhibition | 45.2% |
| CN1CCc2cc(Nc3ncc(C(F)(F)F)c(NCc4cc[nH]n4)n3)ccc2C1 |  | mice, GL261 glioma xenograft | oral, 100 mg/kg daily |  | tumour growth inhibition | 70.3% |
| C[C@@H](NC(=O)Cc1ccc(Cl)c(SC2C(=O)CC(c3c(Cl)cccc3Cl)CC2=O)c1)c1cccc2ccccc12 (stereo partly drawn) |  | C57BL/6 mice, B16-F10 allograft | oral or intraperitoneal, 100 mg/kg once daily |  | tumour growth | no inhibition |
| Cc1cc(N)c2ccccc2[n+]1CCCCCCCCCCCCCC[n+]1c(C)cc(N)c2ccccc21 |  | NOD/SCID mice, NB12 neuroblastoma xenograft | intraperitoneal, 2.5 mg/kg every other day, 14 days | relative to: vehicle | tumour weight reduction | 50.6% |
| CCOc1cc(C(C)(C)C)ccc1C1=N[C@@H](c2ccc(Cl)cc2)[C@@H](c2ccc(Cl)cc2)N1C(=O)N1CCN(CC(=O)NCCOCCOCCOCCNC(=O)CN2CCN(C(=O)N3C(c4ccc(C(C)(C)C)cc4OCC)=N[C@@H](c4ccc(Cl)cc4)[C@H]3c3ccc(Cl)cc3)CC2=O)C(=O)C1 |  | nude mice, A549 xenograft | intraperitoneal, 20 mg/kg twice daily, 21 days |  | tumour growth inhibition | 45.6% |
| O=C(Nc1ccc(C(F)(F)F)cc1Cl)c1cc(Cl)ccc1O |  | mice LuCaP sample A PDX | oral, 150 mg/kg | relative to: vehicle | tumour growth inhibition | ~85% |
| CCCCCCCCn1c(-c2cccnc2)nc(-c2ccc(C)cc2)c1-c1ccc(C)cc1 |  | Ehrlich ascites carcinoma-bearing mice | intraperitoneal, 50 mg/kg every other day, day 26 | relative to: vehicle | tumour size reduction | ~50% |
| COc1cccc2c1C(=O)c1c(O)c3c(c(O)c1C2=O)C[C@@](O)(C(=O)CO)C[C@@H]3O[C@H]1C[C@H](N)[C@@H](O)[C@H](C)O1 |  | nude mice, KB xenograft | intravenous, 8 mg/kg single, day 25 |  | tumour volume | 1300 mm³ |
| COc1cc(OC)c(F)c(/C=C/c2cnc3ccn(S(=O)(=O)c4cn(CCF)cn4)c3n2)c1F |  | nude mice, SNU-16 xenograft | oral, 10 mg/kg once daily, 21 days |  | tumour growth | inhibited |
| COC(=O)C1CN1S(=O)(=O)c1ccc2cc(C)ccc2c1 (stereo not drawn) |  | mice, Lewis lung carcinoma | intraperitoneal, 100 mg/kg, 16 days |  | tumour growth inhibition | 58% |
| CCNC(=O)c1noc(-c2cc(C(C)C)c(O)cc2O)c1NC(=O)CCN1CCOCC1 |  | nude mice, GTL-16 xenograft | intraperitoneal, 90 mg/kg, daily ×5 per week for 3 weeks |  | tumour volume inhibition | 61% |
| COc1cc2c(Oc3ccc(Nc4nn(C)cc4C(=O)NC4CCCCC4)cc3F)ccnc2cc1OCCCCCCC(=O)NO |  | BALB/c nude mice, HCT-116 xenograft | intraperitoneal, 1 to 20 mg/kg, every 3 days, five doses | relative to: vehicle | tumour volume | decreased |
| C[N+]1=C(C=CC=CC=C2N(CCCCCC(=O)NCCCC[C@H](NC(=O)[C@@H](CCC(=O)O)NC(=O)[C@@H](CCC(=O)O)NC(=O)[C@@H](CCC(=O)O)NC(=O)CCCCCNC(=O)C3CCC(CNC(=O)CC[C@H](NC(=O)N[C@@H](CCC(=O)O)C(=O)O)C(=O)O)CC3)C(N)=O)c3ccc4ccccc4c3C2(C)C)C(C)(C)c2c1ccc1ccccc21 (stereo partly drawn) | FMT imaging | mice bearing PC3pip tumours, PC3pip tumour | 1 nmol |  | tumour uptake | 50.8 ± 2.6 pmol/g |
| N#Cc1cccc(-c2ccc(=O)n(Cc3cccc(-c4ncc(OCC5CCN(CC(=O)NCCOCCNc6ccc7c(c6)C(=O)N(C6CCC(=O)NC6=O)C7=O)CC5)cn4)c3)n2)c1 (stereo not drawn) |  | mice, EBC-1 xenograft | intraperitoneal, 10 mg/kg once daily, 10 days |  | tumour growth inhibition | 68.2% |
| CCc1nnc(NS(=O)(=O)c2ccc(NC(=S)NC(=O)/C=C/c3ccc(F)cc3)cc2)s1 |  | NXS2 allograft, A/J mice | intraperitoneal, 20 mg/kg daily, 3 weeks, days 17 to 20 | relative to: vehicle | tumour volume | decreased |
| COC(=O)N[C@H]1CC[C@@H](Nc2cc(NCc3ccccc3F)n3ncc(C(C)C)c3n2)CC1 |  | mice with HCT-116 xenograft | oral, 15 mg/kg twice daily, 14 days | relative to: vehicle | tumour growth inhibition | 84% |
| Cc1ccc2oc(-c3c4c(N)n[nH]c(=O)c4nn3-c3ccc(NC(=O)/C=C/CN(C)C)cc3)c(C)c2c1 |  | BALB/c nude mice, NCI-H1581 xenograft | intraperitoneal, 10 mg/kg once daily, 20 days |  | tumour growth inhibition | 74.4% |

Some of these lines once more:
| Compound | test | system | setting | how to read | endpoint | value |
| --- | --- | --- | --- | --- | --- | --- |
| O=C(Cc1ccc(F)cc1)NCCOc1ccc(-c2ccc(F)cc2)nn1 |  | mice MC38 colon tumour | oral, 20 mg/kg daily, 21 days |  | tumour growth inhibition | 45.2% |
